Experimental data collected from several papers.
Each line is one published result; not all experiments were run side by side. Several values in a cell are separate wells, animals, samples, runs or records.
UniProt O14733, sequence (whole entry, looked up): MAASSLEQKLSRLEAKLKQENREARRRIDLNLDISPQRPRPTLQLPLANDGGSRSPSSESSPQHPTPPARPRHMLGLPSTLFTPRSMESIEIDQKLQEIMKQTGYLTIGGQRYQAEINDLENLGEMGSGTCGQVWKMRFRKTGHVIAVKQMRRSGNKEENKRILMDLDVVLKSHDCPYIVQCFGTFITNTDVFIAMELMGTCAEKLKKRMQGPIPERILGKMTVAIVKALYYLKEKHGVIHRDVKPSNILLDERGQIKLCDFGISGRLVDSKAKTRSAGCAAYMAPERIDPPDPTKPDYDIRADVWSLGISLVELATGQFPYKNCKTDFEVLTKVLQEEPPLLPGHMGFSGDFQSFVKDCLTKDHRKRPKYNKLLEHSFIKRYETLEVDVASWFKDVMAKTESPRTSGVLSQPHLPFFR

`CN(Cc1ccc(C2(C(F)(F)F)CC2)cc1)Cc1cccc2ccccc12` gave an inhibition zone of 22.5 mm (Trichophyton mentagrophytes; microbial growth, disc diffusion; ATCC18748; 0.004 µg/mL, 72 h).
`Cc1cc(C)c(C#N)c(SCC(=O)N2CCOCC2)n1` has an EC50 of over 64 µM (Trypanosoma brucei; parasite growth, resazurin; RHODESIENSE).
The inhibition of `CC1(C)CC[C@]2(NC(=O)NCCN)CC[C@]3(C)C(=CC[C@@H]4[C@@]5(C)CC[C@@H]6OC(C)(C)OC[C@@]6(C)[C@@H]5CC[C@]43C)[C@@H]2C1` is reported as 95.3% (Leishmania mexicana; parasite growth, resazurin; 50 µM, amastigote).
`CN(Cc1ccc(C(C)(C)C)cc1)Cc1cccc2ccccc12` gave an inhibition zone of at least 55 mm (Trichophyton mentagrophytes; microbial growth, disc diffusion; ATCC18748; 0.128 µg/mL, 72 h).
For `CN(c1ccc(F)cc1)c1c(-c2ccccn2)nc2ccccn12`, the IC50 was 1.49 µM and 0.57 µM (Leishmania infantum; parasite growth; intracellular, amastigote).
With `N#Cc1cccnc1SCC(=O)c1ccc(F)cc1` the EC50 was 54.4 µM (Trypanosoma brucei; parasite growth, resazurin; RHODESIENSE).
The inhibition of `CC1(C)CC[C@]2(C(=O)OCC(=O)c3ccccc3)CC[C@]3(C)C(=CC[C@@H]4[C@@]5(C)CC[C@H](O)[C@@](C)(CO)[C@@H]5CC[C@]43C)[C@@H]2C1` is reported as 98.4% (Leishmania mexicana; parasite growth, resazurin; 50 µM, amastigote).
With `COc1cccc(C(=O)COc2nc(C)cc(C)c2C#N)c1` the EC50 was 39 µM (Trypanosoma brucei; parasite growth, resazurin; RHODESIENSE).
`COc1ccc(-c2cc(=O)c3c(O)cc(O[C@@H]4O[C@H](CO)[C@@H](O)[C@H](O)[C@H]4O)cc3o2)cc1O` has an inhibition of 100% (Helicobacter pylori; microbial growth, broth dilution; 7.81 µg/mL).
For `Cc1cc(C)c(C#N)c(SCC(=O)c2ccccc2)n1`, the EC50 was 52.5 µM (Trypanosoma brucei; parasite growth, resazurin).
With `C=C[C@@]1(C)C=C2CC[C@@H]3[C@](C)(CCC[C@@]3(C)C(=O)O)[C@H]2CC1` the inhibition was 100% (Helicobacter pylori; microbial growth, broth dilution; 62.5 µg/mL).
With `Cc1cc(C)c(C#N)c(OCC(=O)c2ccccc2)n1` the EC50 was 53.6 µM (Trypanosoma brucei; parasite growth, resazurin; RHODESIENSE).
`O=c1cc(-c2ccc(O)cc2)oc2cc(O)cc(O)c12` gave an inhibition of 42.6% (Helicobacter pylori; microbial growth, broth dilution; 0.24 µg/mL).
For `CCOCc1ccc(C2OC[C@@]3(C)[C@@H]4CC[C@]5(C)[C@H](CC=C6[C@@H]7CC(C)(C)CC[C@]7(C(=O)O)CC[C@]65C)[C@@]4(C)CC[C@@H]3O2)o1` (some centres unmarked), the inhibition was 97.6% (Leishmania mexicana; parasite growth, resazurin; 50 µM, amastigote).
For `COc1cc([C@H]2OC[C@H]3[C@@H]2CO[C@@H]3c2cc(OC)c(O)c(OC)c2)cc(OC)c1O`, the inhibition was 52% (Helicobacter pylori; microbial growth, broth dilution; 0.24 µg/mL).
The inhibition of `CC1(C)CC[C@]2(NC(=O)NCCCn3ccnc3)CC[C@]3(C)C(=CC[C@@H]4[C@@]5(C)CC[C@@H]6OC(C)(C)OC[C@@]6(C)[C@@H]5CC[C@]43C)[C@@H]2C1` is reported as 97.3% (Leishmania mexicana; parasite growth, resazurin; 50 µM, amastigote).
`COc1cc(-c2cc(=O)c3c(O)cc(O)cc3o2)ccc1O` gave an inhibition of 100% (Helicobacter pylori; microbial growth, broth dilution; 15.63 µg/mL).
The EC50 of `Cc1cc(C)c(C(N)=O)c(SCC(=O)c2ccc(Cl)cc2Cl)n1` is reported as over 64 µM (Leishmania infantum; parasite growth; mouse Macrophage; intracellular, amastigote).
`O=C(O)c1ccc(O)cc1` gave an inhibition of 100% (Helicobacter pylori; microbial growth, broth dilution; 0.48 µg/mL).
For `CCCCC(=O)Nc1ccc(-c2ccc3ncn(CCC)c(=O)c3c2)cn1`, the remaining binding was 100% (MAP2K7 (Homo sapiens, UniProt O14733); binding, competition with immobilised ligand; 0.5 µM).

Some of these lines once more:
`COc1cc(-c2cc(=O)c3c(O)cc(O)cc3o2)ccc1O` gave an inhibition of 100% (Helicobacter pylori; microbial growth, broth dilution; 15.63 µg/mL).
The EC50 of `Cc1cc(C)c(C(N)=O)c(SCC(=O)c2ccc(Cl)cc2Cl)n1` is reported as over 64 µM (Leishmania infantum; parasite growth; mouse Macrophage; intracellular, amastigote).
`O=C(O)c1ccc(O)cc1` gave an inhibition of 100% (Helicobacter pylori; microbial growth, broth dilution; 0.48 µg/mL).
